Measured values gathered from unrelated publications.
Protocols differ between the studies behind these lines. ± gives the spread as reported.

CC(=O)c1c(C)c2cnc(Nc3ccc(C4CCN(CCS(C)(=O)=O)CC4)cn3)nc2n(C2CCCC2)c1=O  patients with SAR (HR+/HER2- advanced breast cancer patients; oral, dose not given): 0%
CC[C@H](C)[C@H](NC(=O)[C@H](CCC(=O)O)NC(=O)[C@H](CCCNC(=N)N)NC(=O)[C@H](CCCNC(=N)N)NC(=O)[C@H](CCCNC(=N)N)NC(=O)[C@H](CCC(N)=O)NC(=O)[C@H](CCCNC(=N)N)NC(=O)[C@H](CCCNC(=N)N)NC(=O)[C@H](CCCCN)NC(=O)[C@H](CCCCN)NC(=O)[C@H](CCCNC(=N)N)NC(=O)CNC(=O)[C@H](Cc1ccc(O)cc1)NC(C)=O)C(=O)N[C@@H](CC(=O)O)C(=O)N[C@@H](Cc1c[nH]cn1)C(=O)N[C@@H](CC(=O)O)C(N)=O  neuron number and morphology (HE and NeuN staining; normal mouse, hippocampus; intravenous, dose not given): no effect
CO[C@H]1C[C@@H]2CC[C@@H](C)[C@@](O)(O2)C(=O)C(=O)N2CCCC[C@H]2C(=O)O[C@H]([C@H](C)C[C@@H]2CC[C@@H](OC(=O)NCCOCCOCCOCCOCCOCCOCCOCCOCCC(=O)N3CCc4cc(Cn5nc(-c6ccc7oc(N)nc7c6)c6c(N)ncnc65)ccc4C3)[C@H](OC)C2)C[C@@H](O)[C@H](C)/C=C(\C)[C@@H](O)[C@@H](OC)C(=O)[C@H](C)C[C@H](C)/C=C/C=C/C=C/1C  TRAE incidence (phase 1 dose escalation, measured: diarrhoea; advanced solid tumour patients; intravenous, 10 mg weekly, grade ≥3): 0%
COc1cc(C(=O)NC2CCN(C)CC2)c(F)cc1Nc1ncc(C(F)(F)F)c(Oc2cccc3c2C(=O)N(C)C3)n1  fraction excreted in urine (0-48 h) (human patients, urine; oral, 50 mg single dose, geometric mean; relative to: dose): 5.26%
CC(C)Nc1ccnc(Nc2cccc(-c3cccnc3)c2)n1  blood chemistry (measured: sodium; mouse, blood; intraperitoneal, 5 mg/kg): 159 mmol/L
O=C(O)CCCOc1ccc(F)cc1-c1cc(-c2ccccc2C(F)(F)F)n(-c2ccccc2)n1  blood chemistry (measured: TG; Crl:CD(SD) rats, female, blood; iv, 25 µg/kg, 1 day): 16.1 ± 2.8 mg/dL
Cc1ccc(F)c2cc(C(=O)N[C@@H]3CCC[C@H](N4CC[C@H](N(C)S(C)(=O)=O)C4)C3)[nH]c12  MRT(0-inf) (CD1 mouse; intravenous, 1 mg/kg): 2.6 h
CCN(CCO)CCCC(C)Nc1ccnc2cc(Cl)ccc12 (centres unmarked)  febrile neutropenia patients (newly diagnosed glioblastoma patients; oral, 400 mg/dose, grade 3, added: radiotherapy plus temozolomide): 33%
Cc1cc(C)c(CNC(=O)c2cc(Cl)c3c(c2C)O[C@@](C)([C@H]2CC[C@H](N(C)C)CC2)O3)c(=O)[nH]1  Nasopharyngitis incidence (human, relapsed/refractory NHL; concentration not given, treatment-related TEAEs, grade 5): 0%
CC(C)[C@H](C(=O)O[C@H](C#N)c1cccc(Oc2ccccc2)c1)c1ccc(Cl)cc1  enzyme contribution to clearance (measured: CYP2C19; human, age 5 years): 3.04%
O=S(=O)(Nc1ccccc1)c1ccc(NC(=S)Nc2ccccc2)cc1  relative organ weight (mouse, male, liver; oral, 80 mg/kg daily, 14 days; relative to: body weight): 5.62%
CN[C@H]1CC[C@@H](c2ccc(Cl)c(Cl)c2)c2ccccc21  AUC(0-inf) (CD-1 mouse, male, plasma; intraperitoneal, 0.3 mg/kg): 0.173 µg·h/mL
C[C@]1(CO)Cc2ncn(-c3ccc(C#N)c(Cl)c3)c2C(=O)O1  drug-related adverse event incidence (Japanese subjects; 80 mg single dose): 0%
COc1ncccc1-c1cnn2ccc(N3CCN(C(=O)OC(C)C)CC3)nc12  drug concentration (mouse nerve ligation model, plasma; oral, 10 mg/kg, 30 min after last dose, repeat dosing day 4): 2300 nM
NC(=O)[C@H]1CCN(c2ncnc(N)c2F)C[C@@H]1N1CCC[C@@H](Nc2cc(Cl)cc(C(F)(F)F)c2)C1=O  grade ≥3 anaemia (B-cell malignancy patients; oral, 246 mg twice daily, dose): 0%
Cc1cn([C@H]2O[C@@H](CO[P@@](=O)(N[C@@H](C)C(=O)OC(C)C)Oc3ccccc3)[C@H](O)[C@H]2F)c(=O)[nH]c1=O  patients with TEAE (measured: ALT/AST elevated; human; 25 mg): 0%
CCC[C@@](N)(CO)CCc1ccc(OCCCCCC(C)C)cc1  Tmax (dog; oral, 5 mg/kg): 6 h
CC(C)[C@@H]1NC(=O)CNC(=O)[C@H](CC(N)=O)NC(=O)[C@H](CCCNC(=N)N)NC(=O)[C@H](Cc2ccc(O)cc2)NC(=O)[C@H](C(C)C)NC(=O)[C@@H](NC(=O)[C@@H](NC(=O)[C@H](CC(N)=O)NC(=O)[C@H](Cc2c[nH]c3ccccc23)NC(=O)[C@H](C)NC(=O)[C@H](Cc2ccccc2)NC(=O)CN)C(C)C)CSSC[C@@H](C(=O)N[C@@H](Cc2cnc[nH]2)C(=O)N[C@@H](CCCNC(=N)N)C(=O)N[C@@H](CCCNC(=N)N)C(=O)N[C@@H](C)C(=O)N[C@@H](CC(N)=O)C(N)=O)NC(=O)[C@H](C(C)C)NC(=O)[C@H](CCCNC(=N)N)NC1=O  neutrophils (ICR mice, blood; intraductal mammary, 5 mg/kg, day 5): 17.5 ± 0.65%
CCCC[C@H](NC(=O)[C@@H]1CCCN1C(=O)c1coc(C)n1)C(=O)N[C@@H](CC(C)C)C(=O)NC(C)(C)C(=O)N[C@@H](CC(C)C)C(=O)N[C@@H](CC(C)C)C(=O)NC(C)(C)C(=O)NC(C)(C)C(=O)NCCC(=O)NC1(CN(C)C)CCC1  alpha-helix content (circular dichroism; phosphate buffer; pH 7.4, 20 °C): 40.3%
Cc1cccc(Cn2nc(C3CC3)c3c(NC(=O)c4cnc5cc(OCCN6CCN(C)CC6)ccn45)cccc32)n1  adverse events incidence (measured: Fatigue; human advanced solid tumours; oral, dose not given, all-causality,, all doses): 36.8%
CN1CC[C@@H](c2c(O)cc(O)c3c(=O)cc(-c4ccc(C(F)(F)F)cc4Cl)oc23)[C@@H]1CO  patients with adverse event (measured: Syncope; relapsed AML; oral, 200 mg, grade 3-4, intermittent dosing): 20%
CN(C(=O)n1cnc(-c2ccc[n+]([O-])c2)c1)C1CCCCC1  concentration (Wistar rat, midbrain; oral, 10 mg/kg/day, 72 h, repeated 5 days): 13.8 ± 0.8 ng/g
O=[N+]([O-])c1ccc2c(c1)S(=O)(=O)C=C2  CD4+ cells (flow cytometry; male C57BL/6 mice, spleen; i.p., 20 mg/kg, 8 days; relative to: CD45+ cells): 17.9%
CC(C)(c1ccccc1)c1cc(-n2nc3ccccc3n2)c(O)c(C(C)(C)c2ccccc2)c1  dermal uptake (exposure assessment; human, age 3-6 years, sunscreen): 0.6 ng/kg body weight/day
O=C(Nc1ccccc1)C1CCN(C(=O)Oc2cccnc2)CC1  change in alertness score (Bond-Lader VAS; healthy women; oral, 60 mg; relative to: pre-dose baseline, direction not given): -0.3
C=CCNc1c(O)cc2c(O)c1C[C@@H](C)C[C@H](OC)[C@H](O)[C@@H](C)/C=C(\C)[C@H](OC(N)=O)[C@@H](OC)/C=C\C=C(/C)C(=O)N2  patients with ALP increase (unresectable or metastatic sarcoma; intravenous, 150 mg/m^2, grade 3-4 lab change): 33%
COc1cc2c(Oc3ccc4[nH]c(C)cc4c3F)ccnc2cc1OCC1(N)CC1  grade 1 or 2 Vomiting (paediatric recurrent refractory sarcoma; 8 mg): 0%
CCN1[C@@H](C(=O)NC23CCC(C(=O)O)(CC2)CC3)[C@H](c2cccc(Cl)c2F)[C@]2(C(=O)Nc3cc(Cl)ccc32)C12CCCCC2  grade ≥3 vomiting (advanced solid tumour patients; oral, dose not given): 4.8%
C[C@@H]1NC(=O)[C@H](CCCCNC(=O)CO/N=C/C(=O)NCCCC[C@@H]2NC(=O)[C@@H](Cc3ccccc3)NC(=O)[C@H](CC(=O)O)NC(=O)CNC(=O)[C@H](CCCNC(=N)N)NC2=O)NC(=O)CNC(=O)[C@@H]2CCCN2C(=O)[C@H](CCCCNC(=O)CO/N=C/C(=O)NCCCC[C@@H]2NC(=O)[C@@H](Cc3ccccc3)NC(=O)[C@H](CC(=O)O)NC(=O)CNC(=O)[C@H](CCCNC(=N)N)NC2=O)NC(=O)[C@H](CCCCNC(=O)[C@H](CCCCN)NC(=O)[C@H](Cc2ccccc2)NC(=O)CNC(=O)CN2CCCNCCNCCCNCC2)NC(=O)[C@H](CCCCNC(=O)CO/N=C/C(=O)NCCCC[C@@H]2NC(=O)[C@@H](Cc3ccccc3)NC(=O)[C@H](CC(=O)O)NC(=O)CNC(=O)[C@H](CCCNC(=N)N)NC2=O)NC(=O)CNC(=O)[C@@H]2CCCN2C(=O)[C@H](CCCCNC(=O)CO/N=C/C(=O)NCCCC[C@@H]2NC(=O)[C@@H](Cc3ccccc3)NC(=O)[C@H](CC(=O)O)NC(=O)CNC(=O)[C@H](CCCNC(=N)N)NC2=O)NC1=O [copper-64 labelled]  tissue uptake (normal mice, spleen; intravenous, 0.74 MBq, 3 h post-injection): 7.22 ± 1.5 %ID/g
O=C(c1ccc(F)c(F)c1Nc1ccc(I)cc1F)N1CC(O)([C@@H]2CCCCN2)C1  adverse events of special interest (patients aged sample A to sample B years; oral, dose not given): 50%
C[C@@H]1OC(=O)NN=C1c1ccc(-c2ccc(F)cc2)c(C(F)(F)F)c1  patients with adverse event (phase I trial, measured: muscle spasms all grades; human patients; 20 mg loading then 1 mg daily): 0%
CC(C)C[C@H](NC(=O)[C@H](CCCCN)NC(=O)OCC1c2ccccc2-c2ccccc21)C(=O)N[C@H](C(=O)N[C@@H](Cc1ccccc1)C(=O)N[C@@H](Cc1ccccc1)C(=O)N[C@@H](CCCCN)C(=O)NCC(=O)N[C@@H](Cc1ccccc1)C(=O)N[C@@H](C)C(=O)N[C@@H](Cc1c[nH]c2ccccc12)C(=O)N[C@@H](CC(N)=O)C(=O)N[C@H](C(=O)N[C@H]1CSSC[C@@H](C(=O)N[C@@H](Cc2c[nH]cn2)C(=O)N[C@@H](CCCNC(=N)N)C(=O)N[C@@H](CCCNC(=N)N)C(=O)N[C@@H](C)C(=O)N[C@@H](CC(N)=O)C(N)=O)NC(=O)[C@H](C(C)C)NC(=O)[C@H](CCCNC(=N)N)NC(=O)[C@H](C(C)C)NC(=O)CNC(=O)[C@H](CC(N)=O)NC(=O)[C@H](CCCNC(=N)N)NC(=O)[C@H](Cc2ccc(O)cc2)NC(=O)[C@H](C(C)C)NC1=O)C(C)C)C(C)C  plateletcrit (ICR mice, blood; intraductal mammary, 5 mg/kg, day 5): 0.03%
C[C@@H](NC(=O)N1C(=O)[C@H](Cc2ccnc(N)c2)[C@H]1C(=O)O)C1CCCCC1  incidence of AEs excluding prolonged aPTT (healthy adult Chinese volunteers; continuous intravenous infusion, 0.6 mg/kg/h, 5-day infusion, CTCAE 5.0 grading): 87.5%
COc1ccc(-c2c(-c3ccc(C#N)c(F)c3)nc(N3CCC(N)CC3)n(C)c2=O)cc1F  treatment-related adverse event incidence (measured: Neutropenia; human patients; oral, dose not given, any grade, dose escalation, NG): 12%
O=c1ccc2ncc(=O)n3c2n1C[C@H]3CN1CCC(NCc2cc3c(cn2)OCCC3)CC1  AUC(0-48) (healthy human volunteers, urine; oral, dose not given, arithmetic mean, added: rifampicin): 1740 µg·h/mL
